Measured values collected from several papers.
Compare with care: the assays were run in different laboratories. ± gives the spread as reported.
Cell line: HeLa

SMILES = COc1cc([C@@H]2c3cc4c(cc3[C@@H](OCc3cc(-c5cccc(C#N)c5)no3)[C@H]3COC(=O)C23)OCO4)cc(OC)c1OC (some centres unmarked); assay = cell growth or viability, SRB; setting = 48 h; measurement = GI50; value = 12.2 µM
SMILES = O=C(O)c1ccccc1-c1c2ccc(=O)c(Br)c-2oc2c(Br)c(O)ccc12; assay = HPLC-MS/MS; setting = 50 µM, 24 h; measurement = mRNA m6A level; value = increased
SMILES = CNC(=O)c1c(C)oc2cc(Oc3ncnc4cc(OC)c(OCCCCCCC(=O)NO)cc34)ccc12; assay = PI staining flow cytometry; setting = 3 µM, 48 h; measurement = cells in S phase; value = 23.5%
SMILES = CC1=[N+]2N=C(c3ccccc3)[O][Pd-2]2([Cl])[O+]=C2Oc3ccccc3C=C21 (centres unmarked); assay = cytotoxicity, MTT; setting = 24 h; scale = relative to: WI-38 over HeLa IC50; measurement = selectivity index; value = 5.31
SMILES = Cc1cc(/C=C2\CN(C(C)C)C/C(=C\c3cc(C)c(O)c(C)c3)C2=O)cc(C)c1O; assay = annexin V/PI flow cytometry; setting = 5 µM, 24 h; measurement = apoptotic cells; value = 18.9 ± 2.11%
SMILES = COc1ccc(CCC(=O)Nc2nc3ccc(Cl)cc3s2)cc1OC; assay = shotgun lipidomics, refers to: PC 32:1; setting = 10 µM, 18 h; measurement = phosphatidylcholine increase; value = ≥ 1 mol%
SMILES = C=C1C(=O)OC2C=C(C)CCC=C(C(=O)OC(C)C(C)(O)C(=O)OC3C(OC(C)=O)C(C(=O)OC)=CCCC(C)=CC4OC(=O)C(=C)C43)CC(OC(=O)C(C)=CC)C12 (centres unmarked); setting = 3 µM, 24 h; scale = relative to: untreated; measurement = caspase-8 activity; value = 2.42 fold
SMILES = S=c1n(-c2ccccc2)c2c3ccccc3nc3[n+]2[n]1[Ir-3]12([S]3)([c]3ccc4ccccc4c3-c3sc4ccccc4[n+]31)[c]1ccc3ccccc3c1-c1sc3ccccc3[n+]12; scale = relative to: IC50 dark over IC50 light; measurement = phototoxicity index; value = > 5000
SMILES = O=C(/C=C/c1ccccc1)Oc1ccc2c(c1)O/C(=C\C=C\c1ccccc1)C2=O; setting = concentration not given, together with: rapamycin 3 µM 4 h; measurement = autophagosome formation; value = inhibited
SMILES = CC(C)=CCCC(C)(O)C1CCC2(C)C1C(O)CC1C3(C)CCC(OC4OC(COC(=O)CCCCCN5C(=O)C=CC5=O)C(O)C(OC(=O)CCCCCN5C(=O)C=CC5=O)C4O)C(C)(C)C3CCC12C (centres unmarked); assay = annexin V/PI flow cytometry, refers to: early and late apoptosis; setting = 20 µM, 24 h; measurement = apoptotic cells; value = 36.4%
SMILES = O=c1c(/C=N/NC(=S)N/N=C/c2cc(Cl)ccc2O)coc2ccccc12; assay = DCFDA flow cytometry; setting = 50 µM, 24 h; measurement = decrease in intracellular H2O2; value = ~45%

Repeated from above:
SMILES = C=C1C(=O)OC2C=C(C)CCC=C(C(=O)OC(C)C(C)(O)C(=O)OC3C(OC(C)=O)C(C(=O)OC)=CCCC(C)=CC4OC(=O)C(=C)C43)CC(OC(=O)C(C)=CC)C12 (centres unmarked); setting = 3 µM, 24 h; scale = relative to: untreated; measurement = caspase-8 activity; value = 2.42 fold
